{"data": "Assay results pooled from the literature", "note": "Numbered parts are unrelated; each lists some results of a single study.", "UniProt Q16513, sequence (whole entry, looked up)": "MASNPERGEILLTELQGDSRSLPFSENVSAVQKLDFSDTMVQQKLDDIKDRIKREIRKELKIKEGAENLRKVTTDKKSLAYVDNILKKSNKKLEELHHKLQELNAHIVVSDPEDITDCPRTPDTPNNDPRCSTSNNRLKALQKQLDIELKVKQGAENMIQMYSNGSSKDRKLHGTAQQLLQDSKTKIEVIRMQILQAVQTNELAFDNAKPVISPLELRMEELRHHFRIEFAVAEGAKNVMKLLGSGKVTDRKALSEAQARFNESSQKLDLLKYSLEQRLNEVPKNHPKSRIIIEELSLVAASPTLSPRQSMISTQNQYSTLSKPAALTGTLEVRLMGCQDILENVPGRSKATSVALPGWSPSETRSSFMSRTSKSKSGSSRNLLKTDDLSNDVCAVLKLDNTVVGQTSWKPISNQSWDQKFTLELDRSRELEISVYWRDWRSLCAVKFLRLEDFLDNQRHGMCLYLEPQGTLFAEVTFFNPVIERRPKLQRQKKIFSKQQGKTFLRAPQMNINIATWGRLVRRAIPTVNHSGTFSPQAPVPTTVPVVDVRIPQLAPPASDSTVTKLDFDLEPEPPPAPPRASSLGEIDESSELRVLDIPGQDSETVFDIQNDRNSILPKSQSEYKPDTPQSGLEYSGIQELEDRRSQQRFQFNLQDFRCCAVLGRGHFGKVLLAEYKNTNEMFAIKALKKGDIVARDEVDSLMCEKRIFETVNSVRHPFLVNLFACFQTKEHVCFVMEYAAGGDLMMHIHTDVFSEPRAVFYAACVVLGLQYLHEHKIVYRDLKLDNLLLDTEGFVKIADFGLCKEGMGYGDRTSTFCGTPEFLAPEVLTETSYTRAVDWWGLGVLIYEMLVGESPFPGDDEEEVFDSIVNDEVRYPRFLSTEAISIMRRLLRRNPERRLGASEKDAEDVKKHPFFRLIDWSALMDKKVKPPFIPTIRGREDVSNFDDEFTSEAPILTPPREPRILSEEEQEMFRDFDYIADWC", "UniProt P57078, sequence (whole entry, looked up)": "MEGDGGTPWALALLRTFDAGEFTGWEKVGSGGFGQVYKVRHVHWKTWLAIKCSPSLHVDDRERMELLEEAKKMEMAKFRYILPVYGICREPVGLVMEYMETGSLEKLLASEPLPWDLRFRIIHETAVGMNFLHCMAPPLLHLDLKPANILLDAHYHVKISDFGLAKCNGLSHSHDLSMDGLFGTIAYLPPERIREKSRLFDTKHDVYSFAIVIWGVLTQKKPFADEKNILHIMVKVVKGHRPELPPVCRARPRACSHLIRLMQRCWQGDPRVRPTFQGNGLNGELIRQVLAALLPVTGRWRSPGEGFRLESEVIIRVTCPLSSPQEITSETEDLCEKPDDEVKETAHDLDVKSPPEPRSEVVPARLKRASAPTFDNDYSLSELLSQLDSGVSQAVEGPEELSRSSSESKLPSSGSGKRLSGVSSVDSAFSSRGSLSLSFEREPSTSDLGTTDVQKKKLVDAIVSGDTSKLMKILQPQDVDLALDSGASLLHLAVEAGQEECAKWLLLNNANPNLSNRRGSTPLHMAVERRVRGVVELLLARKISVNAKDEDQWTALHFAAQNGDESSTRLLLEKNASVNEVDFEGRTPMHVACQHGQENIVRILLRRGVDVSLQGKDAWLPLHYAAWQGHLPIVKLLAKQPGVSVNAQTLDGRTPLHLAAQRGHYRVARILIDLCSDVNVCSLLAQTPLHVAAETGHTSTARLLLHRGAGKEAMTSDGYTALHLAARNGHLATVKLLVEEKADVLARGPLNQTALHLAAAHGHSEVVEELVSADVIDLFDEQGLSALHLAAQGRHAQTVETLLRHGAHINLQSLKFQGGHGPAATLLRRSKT", "UniProt P51817, sequence (whole entry, looked up)": "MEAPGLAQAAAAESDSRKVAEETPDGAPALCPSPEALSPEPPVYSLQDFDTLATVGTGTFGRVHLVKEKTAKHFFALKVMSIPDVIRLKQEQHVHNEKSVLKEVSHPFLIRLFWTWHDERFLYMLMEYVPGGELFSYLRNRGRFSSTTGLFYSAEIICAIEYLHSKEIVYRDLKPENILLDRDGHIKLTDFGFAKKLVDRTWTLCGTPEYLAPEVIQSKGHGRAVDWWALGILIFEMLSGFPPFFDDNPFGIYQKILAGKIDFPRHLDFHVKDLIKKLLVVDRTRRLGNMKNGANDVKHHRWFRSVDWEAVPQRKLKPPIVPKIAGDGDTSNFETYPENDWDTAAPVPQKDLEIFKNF", "UniProt Q96GD4, sequence (whole entry, looked up)": "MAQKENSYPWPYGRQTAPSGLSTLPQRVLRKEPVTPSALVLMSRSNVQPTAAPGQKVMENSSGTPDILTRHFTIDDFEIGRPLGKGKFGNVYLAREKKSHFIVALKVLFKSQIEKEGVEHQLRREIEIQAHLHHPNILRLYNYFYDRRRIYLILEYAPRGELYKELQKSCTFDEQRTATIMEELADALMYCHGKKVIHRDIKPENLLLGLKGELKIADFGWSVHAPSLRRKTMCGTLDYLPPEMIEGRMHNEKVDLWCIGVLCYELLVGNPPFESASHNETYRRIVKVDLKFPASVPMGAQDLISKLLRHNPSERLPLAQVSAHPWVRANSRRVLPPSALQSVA", "UniProt P51812, sequence (whole entry, looked up)": "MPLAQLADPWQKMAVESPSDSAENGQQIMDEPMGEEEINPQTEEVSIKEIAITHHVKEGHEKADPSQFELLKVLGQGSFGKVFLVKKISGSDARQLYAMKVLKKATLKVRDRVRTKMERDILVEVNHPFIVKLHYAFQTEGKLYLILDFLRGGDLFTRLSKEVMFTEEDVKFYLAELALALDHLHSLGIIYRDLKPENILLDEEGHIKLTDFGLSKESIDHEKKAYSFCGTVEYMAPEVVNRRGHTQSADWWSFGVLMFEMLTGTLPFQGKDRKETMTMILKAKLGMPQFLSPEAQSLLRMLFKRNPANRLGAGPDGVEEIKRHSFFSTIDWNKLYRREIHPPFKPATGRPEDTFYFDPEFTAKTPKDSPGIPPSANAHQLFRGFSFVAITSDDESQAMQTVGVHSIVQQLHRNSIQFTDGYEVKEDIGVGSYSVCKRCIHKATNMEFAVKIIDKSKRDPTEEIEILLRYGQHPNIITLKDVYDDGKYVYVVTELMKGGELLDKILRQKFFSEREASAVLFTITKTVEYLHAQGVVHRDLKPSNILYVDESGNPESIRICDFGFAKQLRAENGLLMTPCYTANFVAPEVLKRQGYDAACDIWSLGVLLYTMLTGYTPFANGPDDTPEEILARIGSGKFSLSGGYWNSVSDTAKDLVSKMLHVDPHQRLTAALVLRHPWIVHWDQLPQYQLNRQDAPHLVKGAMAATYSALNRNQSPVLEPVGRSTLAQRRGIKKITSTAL", "UniProt P07333, sequence (whole entry, looked up)": "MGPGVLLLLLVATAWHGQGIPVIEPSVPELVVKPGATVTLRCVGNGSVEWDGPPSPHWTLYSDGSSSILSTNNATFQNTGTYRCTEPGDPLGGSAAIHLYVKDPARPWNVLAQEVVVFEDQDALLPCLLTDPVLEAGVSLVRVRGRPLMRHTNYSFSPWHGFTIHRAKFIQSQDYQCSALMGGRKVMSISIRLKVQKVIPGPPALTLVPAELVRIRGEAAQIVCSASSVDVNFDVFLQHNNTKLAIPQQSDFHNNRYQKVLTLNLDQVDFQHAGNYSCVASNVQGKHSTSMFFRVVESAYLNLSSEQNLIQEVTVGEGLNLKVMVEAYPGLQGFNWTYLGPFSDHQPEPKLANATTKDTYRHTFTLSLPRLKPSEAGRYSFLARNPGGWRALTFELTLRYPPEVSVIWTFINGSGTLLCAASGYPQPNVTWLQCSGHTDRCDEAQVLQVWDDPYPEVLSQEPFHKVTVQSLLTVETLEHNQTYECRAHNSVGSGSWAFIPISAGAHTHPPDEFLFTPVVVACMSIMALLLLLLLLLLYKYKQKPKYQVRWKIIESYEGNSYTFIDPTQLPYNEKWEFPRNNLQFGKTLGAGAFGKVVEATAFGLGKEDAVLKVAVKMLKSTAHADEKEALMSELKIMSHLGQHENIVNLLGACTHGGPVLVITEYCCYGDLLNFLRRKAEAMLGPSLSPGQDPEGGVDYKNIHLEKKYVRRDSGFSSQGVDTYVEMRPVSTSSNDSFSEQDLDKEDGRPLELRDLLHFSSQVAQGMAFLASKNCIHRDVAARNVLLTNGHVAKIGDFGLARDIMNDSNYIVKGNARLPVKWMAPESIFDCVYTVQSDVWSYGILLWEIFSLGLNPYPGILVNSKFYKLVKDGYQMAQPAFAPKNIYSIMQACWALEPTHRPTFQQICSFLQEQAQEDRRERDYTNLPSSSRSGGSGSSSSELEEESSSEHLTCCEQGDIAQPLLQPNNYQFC", "UniProt Q8TDX7, sequence (whole entry, looked up)": "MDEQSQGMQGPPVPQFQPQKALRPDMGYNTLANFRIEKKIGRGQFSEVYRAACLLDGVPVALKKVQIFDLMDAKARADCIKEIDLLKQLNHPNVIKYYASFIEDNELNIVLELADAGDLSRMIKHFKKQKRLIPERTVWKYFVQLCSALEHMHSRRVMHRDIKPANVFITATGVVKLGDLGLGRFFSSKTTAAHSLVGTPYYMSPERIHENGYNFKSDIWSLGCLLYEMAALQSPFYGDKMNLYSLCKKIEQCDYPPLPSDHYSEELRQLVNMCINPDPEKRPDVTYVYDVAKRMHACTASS"}
{"data": "Study 1", "Compound": "Cn1nc(C(F)(F)F)cc1-c1cnc(N2CCc3cc(S(=O)(=O)Nc4c(F)cc(Cl)cc4F)cc(N4CCCC4=O)c32)nc1", "method": "competition with immobilised ligand", "concentration": "1 µM"}
{"target": "EPHB2 (Homo sapiens, UniProt P29323)", "test": "cell-free assay", "remaining binding [%]": 100}
{"target": "RIPK4 (Homo sapiens, UniProt P57078)", "test": "cell-free assay", "remaining binding [%]": 67}
{"target": "Tyrosine-protein kinase JAK3, JH1 (JAK3, Homo sapiens, UniProt P52333)", "test": "cell-free assay", "remaining binding [%]": 81}
{"target": "Aurora kinase A (AURKA, Homo sapiens, UniProt O14965)", "test": "cell-free assay", "remaining binding [%]": 88}
{"target": "NEK7 (Homo sapiens, UniProt Q8TDX7)", "test": "cell-free assay", "remaining binding [%]": 100}
{"target": "CDK11A (Homo sapiens, UniProt Q9UQ88)", "test": "binding", "remaining binding [%]": 100}
{"target": "DAPK3 (Homo sapiens, UniProt O43293)", "test": "cell-free assay", "remaining binding [%]": 97}
{"target": "PRKX (Homo sapiens, UniProt P51817)", "test": "cell-free assay", "remaining binding [%]": 97}
{"target": "EPHA1 (Homo sapiens, UniProt P21709)", "test": "cell-free assay", "remaining binding [%]": 100}
{"target": "KDR (Homo sapiens, UniProt P35968)", "test": "cell-free assay", "remaining binding [%]": 87}
{"target": "Tyrosine-protein kinase ABL1, phosphorylated (ABL1, Homo sapiens, UniProt P00519, Y253F)", "test": "cell-free assay", "remaining binding [%]": 95}
{"target": "SGK2 (Homo sapiens, UniProt Q9HBY8)", "test": "cell-free assay", "remaining binding [%]": 100}
{"target": "FLT3 (Homo sapiens, UniProt P36888)", "test": "cell-free assay", "remaining binding [%]": 85}
{"target": "CAMKK2 (Homo sapiens, UniProt Q96RR4)", "test": "cell-free assay", "remaining binding [%]": 93}
{"target": "CDK15 (Homo sapiens, UniProt Q96Q40)", "test": "cell-free assay", "remaining binding [%]": 100}
{"target": "Ribosomal protein S6 kinase alpha-3, C-terminal kinase domain (RPS6KA3, Homo sapiens, UniProt P51812)", "test": "cell-free assay", "remaining binding [%]": 100}
{"target": "EGFR (Homo sapiens, UniProt P00533, A750P/del747-749)", "test": "cell-free assay", "remaining binding [%]": 100}
{"target": "PKN2 (Homo sapiens, UniProt Q16513)", "test": "cell-free assay", "remaining binding [%]": 82}
{"target": "Macrophage colony-stimulating factor 1 receptor, autoinhibited (CSF1R, Homo sapiens, UniProt P07333)", "test": "cell-free assay", "remaining binding [%]": 91}
{"target": "Aurora kinase B (AURKB, Homo sapiens, UniProt Q96GD4)", "test": "cell-free assay", "remaining binding [%]": 86}
{"target": "RIOK3 (Homo sapiens, UniProt O14730)", "test": "cell-free assay", "remaining binding [%]": 100}
{"target": "WNK4 (Homo sapiens, UniProt Q96J92)", "test": "cell-free assay", "remaining binding [%]": 83}
{"data": "Study 2", "target": "Beta-1 adrenergic receptor (ADRB1, Homo sapiens, UniProt P08588)", "action": "antagonist", "UniProt P08588, sequence (whole entry, looked up)": "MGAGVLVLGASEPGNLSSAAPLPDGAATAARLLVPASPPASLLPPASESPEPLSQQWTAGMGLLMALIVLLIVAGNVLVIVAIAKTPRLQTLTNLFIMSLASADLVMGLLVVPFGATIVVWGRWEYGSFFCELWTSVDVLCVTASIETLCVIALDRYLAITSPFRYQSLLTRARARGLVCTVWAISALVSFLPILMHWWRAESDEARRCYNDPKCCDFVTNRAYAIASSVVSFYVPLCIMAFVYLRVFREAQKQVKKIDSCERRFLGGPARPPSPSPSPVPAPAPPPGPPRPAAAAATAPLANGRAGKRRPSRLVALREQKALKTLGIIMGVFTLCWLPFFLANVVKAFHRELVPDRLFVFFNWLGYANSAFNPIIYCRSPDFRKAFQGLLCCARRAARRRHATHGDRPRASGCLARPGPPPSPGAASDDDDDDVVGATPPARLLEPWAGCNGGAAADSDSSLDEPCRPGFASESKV"}
{"SMILES": "COc1ccccc1N1CCN([S+](=O)([O-])c2cc(C)c(C)cc2C)CC1", "IC50 [µM]": "≥ 100"}
{"SMILES": "CN(C)c1ccc(/C=C/C2=CC(/C=C/c3ccc(N(C)C)cc3)=[O+][B-](F)(F)O2)cc1", "IC50 [µM]": "≥ 100"}
{"SMILES": "CN1CCN(CC(O)COc2cccc3[nH]ccc23)c2ccccc21 (centres unmarked)", "IC50 [µM]": "≥ 100"}
{"SMILES": "OC(CN1CCC(Cc2ccc(F)cc2)CC1)c1ccc(Cl)cc1 (centres unmarked)", "IC50 [µM]": "≥ 100"}
{"SMILES": "CNc1nc(-c2ccccc2)c(-c2ccccc2)s1", "IC50 [µM]": "≥ 100"}
{"SMILES": "CC(C)CN(C)C(=O)c1cc(-c2cnn(C(C)C)c2)nc2ccc(F)cc12", "IC50 [µM]": "≥ 100"}
{"SMILES": "Cc1noc2c(-c3ccsc3)cc(-c3cccnc3)nc12", "IC50 [µM]": "≥ 100"}
{"SMILES": "C[S+](=O)([O-])Nc1ccc(OC[C@@H](O)CNCCc2ccc(Cl)c(Cl)c2)cc1", "IC50 [µM]": "≥ 100"}
{"SMILES": "Cc1ccc(-c2cc(C(=O)Nc3nnc(C)s3)c3ccccc3n2)s1", "IC50 [µM]": "≥ 100"}
{"SMILES": "c1ccc(-c2nc3c(c(N4CCNCC4)n2)CCC3)cc1", "IC50 [µM]": "≥ 100"}
{"SMILES": "C[S+](=O)([O-])c1cccc(Nc2n[nH]c(C(O)c3ccccc3)n2)c1 (centres unmarked)", "IC50 [µM]": "≥ 100"}
{"SMILES": "COc1ccc2[nH]cc(C3=CCN(c4ncnc5ccccc45)CC3)c2c1", "IC50 [µM]": "≥ 100"}
{"SMILES": "Cc1noc2c(N(C)C)cc(-c3ccccc3)nc12", "IC50 [µM]": "≥ 100"}
{"data": "Study 3", "target": "Serine/threonine-protein kinase VRK1 (VRK1, Homo sapiens, UniProt Q99986)", "observed": "enzyme activity", "action": "inhibitor", "concentration": "0.5 µM", "relative to": "control", "Target sequence (Q99986 1-396)": "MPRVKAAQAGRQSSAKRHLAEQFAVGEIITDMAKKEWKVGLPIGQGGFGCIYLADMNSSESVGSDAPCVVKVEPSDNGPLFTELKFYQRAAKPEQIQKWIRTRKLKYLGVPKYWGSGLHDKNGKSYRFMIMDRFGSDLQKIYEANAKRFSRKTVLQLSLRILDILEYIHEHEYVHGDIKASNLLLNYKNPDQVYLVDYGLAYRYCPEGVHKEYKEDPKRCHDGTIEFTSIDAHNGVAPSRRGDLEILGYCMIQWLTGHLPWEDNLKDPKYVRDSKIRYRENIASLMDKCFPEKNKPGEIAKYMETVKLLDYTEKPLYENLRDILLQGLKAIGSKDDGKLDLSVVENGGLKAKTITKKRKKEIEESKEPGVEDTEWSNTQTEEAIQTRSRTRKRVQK"}
{"SMILES": "N#Cc1cnc2cnc(NCc3cccnc3)cc2c1Nc1ccc(F)c(Cl)c1", "remaining activity": "99.2%"}
{"SMILES": "O=C1Nc2ccc(Br)cc2/C1=C/c1cc2c([nH]1)CCCC2", "remaining activity": "108%"}
{"SMILES": "Cc1ccc(S(=O)(=O)/C=C/C#N)cc1", "remaining activity": "105%"}
{"SMILES": "O=C1Nc2ccccc2/C1=C\\c1c(Cl)[nH]c2ccccc12", "remaining activity": "104%"}
{"SMILES": "CN1CCN(c2ccc3nc(-c4c(N)c5c(F)cccc5[nH]c4=O)[nH]c3c2)CC1", "remaining activity": "98.5%"}
{"SMILES": "COc1ccc2c(c1)c(C1=C(c3c[nH]c4ccccc34)C(=O)NC1=O)cn2CCCN(C)C", "remaining activity": "76.7%"}
{"SMILES": "Oc1cccc(-c2nc(N3CCOCC3)c3oc4ncccc4c3n2)c1", "remaining activity": "98.4%"}
{"SMILES": "CCCNC(=O)Nc1ccc(Oc2ncnc3cc(OC)c(OC)cc23)cc1Cl", "remaining activity": "104%"}
{"SMILES": "O=Nc1c(-c2c(O)[nH]c3cc(Br)ccc23)[nH]c2ccccc12", "remaining activity": "98%"}
{"SMILES": "COc1ccc(COc2ccc(Cc3cnc(N)nc3N)cc2OC)cc1", "remaining activity": "91.4%"}
{"SMILES": "O=C(c1cc2cc(O)ccc2[nH]1)c1cc2cc(O)ccc2[nH]1", "remaining activity": "85.3%"}
{"SMILES": "Cc1cc(Nc2cc(N3CCN(C)CC3)nc(Sc3ccc(NC(=O)C4CC4)cc3)n2)[nH]n1", "remaining activity": "107%"}
{"SMILES": "O=C1Cc2c([nH]c3ccc(Br)cc23)-c2ccccc2N1", "remaining activity": "87.3%"}
{"SMILES": "CN(C)S(=O)(=O)c1ccc2c(c1)/C(=C/c1cc3c([nH]1)CCCC3)C(=O)N2", "remaining activity": "104%"}
{"SMILES": "COc1cccc(-c2cc(=O)c3ccccc3o2)c1N", "remaining activity": "89.4%"}
{"SMILES": "O=C1NC(=O)c2c1c1c3ccccc3[nH]c1n1cncc21", "remaining activity": "78.1%"}
{"SMILES": "c1ccc(-c2n[nH]c3c2oc2ccccc23)cc1", "remaining activity": "83.1%"}
{"SMILES": "CCCCc1c(-c2ccc(OC)cc2)[nH]c2nccnc12", "remaining activity": "95.5%"}
{"SMILES": "O=c1cc(N2CCOCC2)oc2c(-c3ccccc3)cccc12", "remaining activity": "85.4%"}
{"SMILES": "c1ccc2c(-c3ccncc3)c[nH]c2c1", "remaining activity": "101%"}
{"data": "Study 4", "target": "Bromodomain-containing protein 4, BD1 (BRD4, Homo sapiens, UniProt O60885)", "observed": "acetyl-histone H4 peptide binding", "method": "AlphaScreen displacement", "concentration": "50 µM"}
{"SMILES": "NC(=O)c1ccc2ccccc2c1", "inhibition [%]": 1.55}
{"SMILES": "Oc1cc(O)cc(/C=C/c2ccc(O)c(O)c2)c1", "inhibition [%]": 38.2}
{"SMILES": "CC(C)n1cnc2c(Nc3ccc(-c4ccccn4)cc3)nc(N[C@H](C)CO)nc21", "inhibition [%]": 56}
{"SMILES": "CCC(CO)Nc1ccc2ncc(-c3ccc(F)c(Cl)c3)n2n1 (centres unmarked)", "inhibition [%]": 3.1}
{"SMILES": "O=C1Nc2ccccc2C1=Cc1ccc[nH]1", "inhibition [%]": 38.9}
{"SMILES": "O=C1Nc2ccc(Br)cc2C1=NNC(=S)NCC1CCCO1 (centres unmarked)", "inhibition [%]": 13.1}
{"SMILES": "COc1ccc(-c2nnc3ccc(SCC(=O)Nc4cccc(Cl)c4)nn23)cc1OC", "inhibition [%]": 19.5}
{"SMILES": "CCn1c(-c2nonc2N)nc2cnc(Oc3cccc(NC(=O)c4ccc(OCCN5CCOCC5)cc4)c3)cc21", "inhibition [%]": 25.3}
{"SMILES": "COc1cc2ncnc(Nc3cccc(O)c3)c2cc1OC.Cl", "inhibition [%]": 13.5}
{"SMILES": "CCOC(=O)c1cnc2cc(OCCOC(C)C)c(OCCOC(C)C)cc2c1O", "inhibition [%]": 5.55}
{"SMILES": "CC(Nc1nc(-c2cncnc2)cnc1N)c1ccccc1 (centres unmarked)", "inhibition [%]": 16.1}
{"SMILES": "Nc1nc(Nc2ccc(F)cc2)sc1C(=O)c1ccccc1", "inhibition [%]": 15.5}
{"SMILES": "COc1ccc(Cl)cc1C(=O)Nc1ccc2[nH]ncc2c1", "inhibition [%]": 2.25}
{"SMILES": "COc1ccc(CNc2nc(N(CCO)CCO)nc3c2ncn3C(C)C)cc1", "inhibition [%]": 18.5}
{"SMILES": "O=C1NC(=O)C(=Cc2ccc3nccnc3c2)S1", "inhibition [%]": 27}
{"SMILES": "Cc1ccc(NC(=O)c2cccc(N(C)C)c2)cc1NC(=O)c1ccc(O)cc1", "inhibition [%]": 36.7}
{"SMILES": "c1ccc(-c2n[nH]c3c2oc2ccccc23)cc1", "inhibition [%]": 17.9}
{"SMILES": "COc1ccc(-c2nnc3ccc(SCC(N)=O)nn23)cc1OC", "inhibition [%]": -3.55}
{"SMILES": "CCN(CC)Cc1c(-c2ccncc2)[nH]c2ncccc12", "inhibition [%]": 1.15}
{"SMILES": "O=c1[nH]cnc2cccc(Cl)c12", "inhibition [%]": 4.25}
{"SMILES": "COc1ccc(-c2c(-c3ccccc3)oc3ncnc(N)c23)cc1", "inhibition [%]": 13}
{"SMILES": "COc1nccc(-c2c(-c3ccc(F)cc3)ncn2C2CCC(O)CC2)n1 (centres unmarked)", "inhibition [%]": 72.8}
{"note": "For quick reference, copied from above (study 3):"}
{"SMILES": "Oc1cccc(-c2nc(N3CCOCC3)c3oc4ncccc4c3n2)c1", "remaining activity": "98.4%"}
{"SMILES": "CCCNC(=O)Nc1ccc(Oc2ncnc3cc(OC)c(OC)cc23)cc1Cl", "remaining activity": "104%"}
{"SMILES": "O=Nc1c(-c2c(O)[nH]c3cc(Br)ccc23)[nH]c2ccccc12", "remaining activity": "98%"}
{"SMILES": "COc1ccc(COc2ccc(Cc3cnc(N)nc3N)cc2OC)cc1", "remaining activity": "91.4%"}
{"SMILES": "O=C(c1cc2cc(O)ccc2[nH]1)c1cc2cc(O)ccc2[nH]1", "remaining activity": "85.3%"}
{"SMILES": "Cc1cc(Nc2cc(N3CCN(C)CC3)nc(Sc3ccc(NC(=O)C4CC4)cc3)n2)[nH]n1", "remaining activity": "107%"}
{"SMILES": "O=C1Cc2c([nH]c3ccc(Br)cc23)-c2ccccc2N1", "remaining activity": "87.3%"}
{"SMILES": "CN(C)S(=O)(=O)c1ccc2c(c1)/C(=C/c1cc3c([nH]1)CCCC3)C(=O)N2", "remaining activity": "104%"}
{"SMILES": "COc1cccc(-c2cc(=O)c3ccccc3o2)c1N", "remaining activity": "89.4%"}
